Measured values from different studies.
Each numbered part is a random draw from the data of one study; scales do not carry over between parts.

Study 1 — technique: universal PBM; form: double-stranded DNA, one strand shown; matrix: in vitro; concentration: not given; reading: higher = stronger binding
Target: Sal-like protein 4, full length isoform B (SALL4, Homo sapiens, UniProt Q9UJQ4-2, residues 1-616)
Notes: 8-mer, flanks averaged, mean of replicates
Strand | E-score
CACGAGGG | -0.282
ATGCAAAT | 0.193
ATAGCAAA | 0.246
AGGAGGAA | -0.0105
AGGGACTA | -0.113
GCAGTAGC | -0.141
GCGAGATA | 0.0876
AATAGCGT | 0.178
ATAGTGGC | 0.0242
GAATAGAA | 0.158
GCATGTTA | 0.137
CCGGCCAA | -0.243
AGAAGGGC | -0.287
CGGTTCAC | -0.263
ACACTTGA | 0.121
CCACCCGG | -0.297
ACCTTAAG | -0.00371
AACCGAGC | -0.239
ATGTCATC | -0.0215
CGCAATGC | -0.144
ACGGATGA | -0.0575
ACCCGCAC | -0.213
AGGCATCA | -0.048
ACCCGTTC | -0.0893
GCACGTCA | -0.0467

Study 2 — technique: aptamer microarray, sandwich; form: DNA with 2'F-ANA; matrix: in vitro; concentration: 200 nM; with: Cy3 exosite-II aptamer, 400 nM; reading: higher = stronger binding; strand: GGTTGGTGTGGTTGG
Target: Prothrombin, mature alpha-thrombin (F2, Homo sapiens, UniProt P00734)
Notes: whole 15-mer aptamer, many near background
Modification | mean fluorescence intensity
2'F-ANA at 3 6 9 10 11 13 15 | 414 a.u.
2'F-ANA at 1 2 9 10 11 13 14 | 45 a.u.
2'F-ANA at 3 4 5 7 8 15 | 116 a.u.
2'F-ANA at 1 2 4 8 11 12 14 15 | 65 a.u.
2'F-ANA at 1 2 4 6 7 12 14 15 | 55.9 a.u.
2'F-ANA at 1 3 5 7 9 10 11 12 15 | 56.3 a.u.
2'F-ANA at 1 4 8 11 12 14 15 | 66.9 a.u.
2'F-ANA at 1 2 3 4 6 7 8 9 11 12 | 315 a.u.
2'F-ANA at 3 6 7 8 10 14 15 | 415 a.u.
2'F-ANA at 5 6 7 8 9 10 11 12 13 14 | 55.9 a.u.
2'F-ANA at 3 5 6 8 12 15 | 251 a.u.
2'F-ANA at 1 2 5 7 12 13 15 | 93.7 a.u.
2'F-ANA at 3 5 6 7 12 15 | 214 a.u.
2'F-ANA at 6 8 10 12 13 14 15 | 100 a.u.
2'F-ANA at 1 3 4 6 7 8 9 10 11 | 60.7 a.u.
2'F-ANA at 1 4 8 10 13 14 15 | 45.9 a.u.
2'F-ANA at 1 4 5 6 8 10 13 14 15 | 47.9 a.u.
2'F-ANA at 1 4 6 8 12 13 14 15 | 58 a.u.
2'F-ANA at 1 3 4 5 6 8 9 10 11 12 14 | 47.9 a.u.
2'F-ANA at 2 4 5 7 8 13 14 | 55.2 a.u.
2'F-ANA at 2 4 6 10 12 13 14 | 61 a.u.
2'F-ANA at 1 2 4 5 6 8 12 13 14 15 | 49 a.u.
2'F-ANA at 1 3 9 10 11 12 13 14 15 | 76.3 a.u.
2'F-ANA at 2 6 7 8 9 10 11 15 | 110 a.u.
2'F-ANA at 1 4 6 8 9 10 11 15 | 58.9 a.u.

Study 3 — technique: RNA Bind-n-Seq; form: RNA; matrix: in vitro; concentration: 365 nM; baseline: no-protein control; reading: higher = stronger binding
Target: RNA binding protein fox-1 homolog 2, RRM domain, GST-SBP tag (RBFOX2, Homo sapiens, UniProt O43251-10, residues 100-194)
Notes: natural RNA segment, single round, ends assumed
Shared flanks, not repeated: GGGAGUUCUACAGUCCGACGAUC … UGGAAUUCUCGGGUGCCAA
Target sequence (chain): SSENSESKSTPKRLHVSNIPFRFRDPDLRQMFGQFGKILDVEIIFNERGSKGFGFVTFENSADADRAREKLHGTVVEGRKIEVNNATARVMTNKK
Strand | RBNS enrichment (R)
AAUUGCCUUUAGUCAACCACUGGAUUUGAAUUUGCAUCAAGUAUUUUAAAUAAUAUUGAAUUUAAAAAAAUGUAUUGCAGUAGUGUGUCAGUACCUUAUUGUUAAAGUGA | 1.5
CCUUCCCCAUCUCUCCUCACCAUUCUGCCUACAAGGCUUCUAGCAGCACGGGGGCCCGGAGGGAGAGCCCCUUCAGGGUUCAGAGUGAAGUACUACCUUGCCAGGGACUC | 0.662
AUUAUUUUUUUAAACCAUCGUUAAUAUACUGAAGUGAGCUAUAGCACAUAUCAUGUGCUUAGUUUGUUUAUUUUUCUCCAUCUCCCCUUGGCUUCCUAGAGUUUGGACAU | 0.295
UAUCUGAUGGUGCAGUUUUGGGGUCUGUCCCCACUCCCCUCAGUCCCUACCCCUGCUCCCCUCAGACAUGGGGCAGGAAACAGCAGGUGCGCUGGGCAGGAGGAAGGCAU | 0.212
UACAUUUAGAAAUAUUUAUUUAUUCUAGCAGGGAAAAAACCCCACAUGCUUUAAAUGAUGUCACUUUCCACAACUUCAUUCUUGUGCUGUCAUUGGACUGAAUGUUAUGC | 2.92
UGUAGCACAAAGGGUGUUAUCUUCCUAUAGCAGAUCAACAGUGGCAGCUCACAGUACCAGCCAGCUUUAGACCUCCCAGUGCAAAGCCCAGCGCAGCACUAAGCCUUAAG | 0.445
CCAUCUUGGGUUCUGGUCAGUGCUGCAGGCUCCUGGGCUCCCCUCUGCCCAGUGAGCAACUUAUACCCUGCACUGGAUAGUGGCAAGUACCCAGCCUGGGACUUCCCUGG | 0.186
CCUGCCAGGGGUCCUCACCCCUGUCCACCCUGUGCCUGGCUGUCCCUGCACCCAGAUACAGCAACAUGGCCUGUACCCAGCAGAGUGGUGGCACCACCAUGGUUACAGCG | 0.316
CGCCCGCCAUCGUGCCCAGCUAAUUUUUAUAUUUUUAGUGGAGACAGGGUUUCGGGUUUCACCAUGUUGGCCAGGUUGAUCUUGGACUCCUGACCCCAGGUGAUCCACCU | 0.288
GGGGGCGUUUAUUCAGUCUUAGAGCCACUCGGAAUGGCUGGCCACAGUCUGAGCUGACUCCCUUCAGUGUGACCCCACUGUGUGGUUCCAUGGUCUUCGAUGUGGUUUUC | 0.261
CUUAACAAAGAAAACCUGGUGCUUGCAGUAUAGCUGUAGAAUUUUCUAUGUUCAAGACGUAGCUGCAAUAAAAUCCCAGUAGUAAAGGCUCAUUUAGCUCUGUAGCUUUC | 0.374
UAACAUUUCCUGGUCAGGAAGGAAAAUCAGUACCUGGACGGGCCUCGAAAAUGACAAAUGCAACAGCGAGCCCUUUGUGUCCAGCUAAGCUAAAGUCUCCUCAGUGUGCA | 2.57

Study 4 — technique: protein-binding microarray; form: double-stranded DNA, one strand shown; matrix: in vitro; concentration: 250 nM; notes: 60-bp whole probe; with: salmon DNA 0.4 mg/ml; baseline: random background probes; reading: higher = stronger binding; shared flanks, not repeated: GCCTAGCAC … GTCTTGATTCGCTTGACGCTGCTG
Target: Interferon regulatory factor 5, full length, phosphomimetic (IRF5, Homo sapiens, UniProt Q13568-2, residues 1-514, K96S/S451D/S453D/S456D/S462D)
Strand | log fluorescence [z-score]
GACGGTATCCAACTGCTGACGTGCTAG | -0.345
TAAGGTATCGGTTTCGGTTAGTGCTAG | 10.6
TTAGATTTCTGTTTCGATTAGTGCTAG | 9.6
GACGGTATCGGGACTGGGGAAGTGCTA | 1.27
GACGGACTGCTTCTCCTGACGTGCTAG | -0.14
TTAAATTTTAATAACACAGAGTGCTAG | 0.479
GTCGATATCAGTATCGAGACGTGCTAG | 4.74
GACGATTTCAGGTATCGAGACGTGCTA | 1.6
TTAGGACTGGACTATCGGTCAGTGCTA | 4.11
TTAGGTTTAGACTTTCGGTTAGTGCTA | 9.13
GACGGAGTGGGGTATCGGGACGTGCTA | 0.0846
TCACTTTTATTTTCAGTACTGTGCTAG | 3.52
TTAGGACTGGACACTGCGTTAGTGCTA | -0.673
GGCCCAGGAGGAGGCCCCTCGTGCTAG | -0.688
TTAGAACTGAGTCTCGAGTAGTGCTAG | -0.0488
TCACCATTAAATTTTAAACTGTGCTAG | 0.456

Study 5 — technique: protein binding microarray; form: double-stranded DNA, one strand shown; matrix: in vitro; concentration: not given; baseline: not given; reading: higher = stronger binding
Target: Histone acetyltransferase KAT6A, both winged helices, GST fusion (KAT6A, Homo sapiens, UniProt Q92794, residues 1-181)
Notes: 8-mer, flanks averaged, mean of 2 arrays, mostly near background
Target sequence (chain): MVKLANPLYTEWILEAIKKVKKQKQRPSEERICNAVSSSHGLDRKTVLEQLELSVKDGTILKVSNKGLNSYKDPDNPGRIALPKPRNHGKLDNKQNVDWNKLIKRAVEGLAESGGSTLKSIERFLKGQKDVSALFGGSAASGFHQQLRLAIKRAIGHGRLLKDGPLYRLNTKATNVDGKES
Strand | E-score
AAGATTAC | -0.101
CGGTTTCA | 0.153
ACGTGAAT | 0.124
AACCCGAC | 0.245
ATCGCTCG | 0.108
ACTATCAC | -0.145
CGTAAGTA | 0.0326
AATGATAG | 0.0991
GTGACAAA | -0.0713
AATCTGGT | -0.167
GACGAACC | 0.0862
CAAATCAA | -0.151
GATCGCAA | 0.0139
CGGTTTAC | 0.242
ACTCGCCT | 0.068
GGGCTAGA | -0.03
AACCTACT | -0.0991
AATGCGAT | 0.0274
CGGGTCGC | 0.312
AAACGGAA | 0.281
CGACCTCG | 0.0484
AACTAGTG | -0.174
GGATAGTA | -0.0934
AACTGACA | -0.132
ACTCTATC | -0.126

Repeated from above (study 5):
Strand | E-score
CGTAAGTA | 0.0326
AACCCGAC | 0.245
AACTAGTG | -0.174
ACTATCAC | -0.145
GATCGCAA | 0.0139
GGATAGTA | -0.0934
AACCTACT | -0.0991
ACGTGAAT | 0.124
GACGAACC | 0.0862
ATCGCTCG | 0.108
AAGATTAC | -0.101
AACTGACA | -0.132
GGGCTAGA | -0.03
CGGTTTCA | 0.153
AATGCGAT | 0.0274
CAAATCAA | -0.151
AATCTGGT | -0.167
